Published values gathered from unrelated publications.
A part holds a random share of what one study measured.

Block 1
Target: TAR DNA-binding protein 43, full length, His tag (TARDBP, Homo sapiens, UniProt Q13148, residues 1-414)
Technique: RNA Bind-n-Seq
Form: RNA
Sample: in vitro
Concentration: 20 nM
Setting: 6-mer, flanks averaged, single round
Added: 150 mM KCl
Relative to: input library
Direction: higher = stronger binding
Strand | 6-mer enrichment (R)
GACACU | 0.744
CUUAUA | 0.592
CGCAUC | 0.628
GCUCCC | 0.697
GGCAGA | 1.83

Block 2
Target: PABPC1L2, full length, GST fusion (mouse, UniProt A0ABA7IW68)
Technique: RNAcompete
Form: RNA
Sample: in vitro
Concentration: 20 nM
Setting: 7-mer, probes averaged, single round
Relative to: mean of 7-mers
Direction: higher = stronger binding
Residues (chain): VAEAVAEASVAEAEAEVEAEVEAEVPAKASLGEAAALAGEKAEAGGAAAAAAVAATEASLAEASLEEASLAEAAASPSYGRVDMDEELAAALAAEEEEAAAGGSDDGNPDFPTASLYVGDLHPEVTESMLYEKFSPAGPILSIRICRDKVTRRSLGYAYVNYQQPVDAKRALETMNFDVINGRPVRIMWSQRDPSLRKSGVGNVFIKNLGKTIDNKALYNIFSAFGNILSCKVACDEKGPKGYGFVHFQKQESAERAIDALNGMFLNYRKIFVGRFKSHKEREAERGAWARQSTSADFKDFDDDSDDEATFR
Strand | 7-mer Z-score
UGUGCAA | 0.0478
GUUUGUU | -0.507
AAUCGCA | 0.273
CCACCUC | -0.213
CCGUAAA | 1.2
AAACCUC | 0.262
AGCAGAG | -0.0246
AGAUGAG | -0.135

Block 3
Target: Interferon regulatory factor 7, full length, phosphomimetic (IRF7, Homo sapiens, UniProt Q92985, residues 1-503, S101K/S471D/S472D/S475D/S476D/S477D/S483D/S484D/S487D)
Chain of UniProt Q92985 (whole entry, unmodified, looked up): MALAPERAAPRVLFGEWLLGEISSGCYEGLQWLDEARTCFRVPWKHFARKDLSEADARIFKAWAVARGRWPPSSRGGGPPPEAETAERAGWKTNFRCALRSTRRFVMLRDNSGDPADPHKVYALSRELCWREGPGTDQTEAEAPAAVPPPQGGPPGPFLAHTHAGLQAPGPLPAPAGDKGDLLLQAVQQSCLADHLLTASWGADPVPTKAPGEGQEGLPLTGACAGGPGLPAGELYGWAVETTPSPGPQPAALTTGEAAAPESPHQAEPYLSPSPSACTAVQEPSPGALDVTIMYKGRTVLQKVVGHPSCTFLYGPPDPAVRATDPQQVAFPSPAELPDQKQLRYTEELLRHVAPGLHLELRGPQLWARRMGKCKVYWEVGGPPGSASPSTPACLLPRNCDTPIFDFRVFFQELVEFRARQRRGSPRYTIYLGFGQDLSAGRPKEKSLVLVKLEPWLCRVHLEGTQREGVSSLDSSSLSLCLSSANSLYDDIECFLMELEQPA
Technique: protein-binding microarray
Form: double-stranded DNA, one strand shown
Sample: in vitro
Concentration: 250 nM
Setting: 60-bp whole probe
Added: salmon DNA 0.4 mg/ml
Relative to: random background probes
Direction: higher = stronger binding
All sequences stand within: GCCTAGCAC … GTCTTGATTCGCTTGACGCTGCTG
Strand | log fluorescence [z-score]
GACGATATCAGTTTGGAGACGTGCTAG | -0.258
TCATTTTAGCTTCTCAAACTGTGCTAG | 1.31
TACGGACTGGGGTATCGGGACGTGCTA | -0.454
TCATCTATCTTAAATAGGACTGTGCTA | 0.549
TTTGGACTGGGTTTCGGTTAGTGCTAG | 6.63
TGAAAACTAAGTTTATTAGAGTGCTAG | 0.102
TCAGCTATGTTGTCCAGGACTGTGCTA | -0.583
GACGGACTGCTGTTCCTGACGTGCTAG | -0.245

Single results of other studies
Substance | target | assay | test system | setting | how to read | endpoint | result
PhoQ, residues 284 288 289 292 302 303 TLASMF | PhoP, residues 12 14 15 18 19 LHATL (Escherichia coli, UniProt P23836) | Sort-seq, measured: YFP reporter | E. coli | PhoQ-PhoP variant library, added: 10 µM Mg2+ | relative to: high Mg2+ state, higher = stronger signaling | fold induction | 0.951

For quick reference, copied from above (block 1):
Strand | 6-mer enrichment (R)
CGCAUC | 0.628
GACACU | 0.744
CUUAUA | 0.592
